Results collected from several papers.
Every numbered part comes from another study and shows a few of its results, in no order. Positions count from the first letter of the parent shown.

Block 1
Target: CCNB3, cyclin fold, Cln2 fusion (human)
Technique: yeast growth competition, sequencing
Matrix: yeast
Notes: weak parent motif
Baseline: not given
Reading: higher = stronger binding
Starting sequence: HIRA docking peptide (human); SLSKRKLELEVET; partner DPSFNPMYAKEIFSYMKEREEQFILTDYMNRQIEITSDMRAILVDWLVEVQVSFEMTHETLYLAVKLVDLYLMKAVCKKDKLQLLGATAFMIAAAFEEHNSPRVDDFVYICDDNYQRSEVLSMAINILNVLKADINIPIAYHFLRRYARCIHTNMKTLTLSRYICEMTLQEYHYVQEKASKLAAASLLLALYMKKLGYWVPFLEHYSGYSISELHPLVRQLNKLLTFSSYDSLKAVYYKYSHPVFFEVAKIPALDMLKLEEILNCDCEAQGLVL
Change | normalised enrichment score
SLSKKKLEFEVET [R5K L9F] | -0.117
ALSKRKLELEVET [S1A] | 0.57
SLSKAKLELEVET [R5A] | 0.0259
SASKRKLELEVET [L2A] | -0.106
SLSKKKLELEVET [R5K] | -0.175
SLSKRKLEAEVET [L9A] | 0.413
SLSKRKLELAVET [E10A] | 0.0716
SLSKRALELEVET [K6A] | 0.222
SLSKAKAELEVET [R5A L7A] | 0.265
SLSKRKLALEVET [E8A] | 0.467

Block 2
Target: CREBL2, bZIP domain (human)
Technique: DHFR protein complementation
Matrix: yeast
Notes: single substitutions, most at no-binding floor
Baseline: wild-type JUN-FOS pair
Reading: higher = stronger binding
Starting sequence: JUN, bZIP domain (human); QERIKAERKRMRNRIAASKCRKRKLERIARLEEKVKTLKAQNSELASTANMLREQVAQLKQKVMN; partner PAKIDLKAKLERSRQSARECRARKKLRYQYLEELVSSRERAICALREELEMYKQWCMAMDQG
Change | binding fitness [natural log]
N42K | -1.55
A40E | -1.35
E32A | -1.52
A46P | -1.47
L31G | -1.51
L52R | -1.49
I28E | -1.52
A46E | -1.48
K39T | -1.54
L52Y | -1.19
V35G | -1.49
A49D | -1.66
E54R | -1.3
E32W | -1.57
A46I | -1.51
E33H | -1.34
V56M | -1.47
E33W | -1.3
E44D | -1.43
S47V | -1.48
E32K | -1.52
S43H | -1.52

Block 3
Target: Histone acetyltransferase KAT6A, both winged helices, GST fusion (KAT6A, Homo sapiens, UniProt Q92794, residues 1-181)
Technique: protein binding microarray
Form: double-stranded DNA, one strand shown
Matrix: in vitro
Tested at: not given
Notes: 8-mer, flanks averaged, mean of 2 arrays, mostly near background
Baseline: not given
Reading: higher = stronger binding
Residues (chain): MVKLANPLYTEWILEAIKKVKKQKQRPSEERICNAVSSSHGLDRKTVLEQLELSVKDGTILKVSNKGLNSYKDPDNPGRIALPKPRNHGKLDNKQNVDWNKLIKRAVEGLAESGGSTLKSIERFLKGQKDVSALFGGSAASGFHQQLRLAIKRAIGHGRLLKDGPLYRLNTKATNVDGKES
Strand | E-score
AAGCGTGT | 0.197
CCATTACG | 0.00153
AAGCACGA | -0.269
ATCTGGAA | -0.0563
CCCGCGAC | 0.234
ACTCTTCG | -9.5e-05
CATTCGTA | -0.072
CAGTCCAG | -0.144
GGTAAGGA | 0.011
CATTTCTC | -0.015
AATCAGTC | 0.0775
AATCCACC | -0.25
ATTAAGTG | -0.0862
AAGAATGC | -0.101
GCAGGACA | -0.0617
AGGAAAAA | -0.154
ACAAGGCC | -0.0886
TTCGACAA | -0.138
ACCCCCTA | -0.361
CCTGGCTA | -0.154
CAGCGAGC | 0.0629

Single results of other studies
Substance | target | test | system | conditions | scale | measurement | result
PhoQ, residues 284 288 289 292 302 303 TNSAEL | PhoP, residues 12 14 15 18 19 SPWRL (Escherichia coli, UniProt P23836) | Sort-seq, measured: YFP reporter | E. coli | PhoQ-PhoP variant library, added: 10 µM Mg2+ | baseline: high Mg2+ state, higher = stronger signaling | fold induction | 0.892
